Experimental data from different studies.
Protocols differ between the studies behind these lines. “And” joins repeats or separate records; there may be more than shown.
Chain of UniProt O75795 (whole entry, looked up): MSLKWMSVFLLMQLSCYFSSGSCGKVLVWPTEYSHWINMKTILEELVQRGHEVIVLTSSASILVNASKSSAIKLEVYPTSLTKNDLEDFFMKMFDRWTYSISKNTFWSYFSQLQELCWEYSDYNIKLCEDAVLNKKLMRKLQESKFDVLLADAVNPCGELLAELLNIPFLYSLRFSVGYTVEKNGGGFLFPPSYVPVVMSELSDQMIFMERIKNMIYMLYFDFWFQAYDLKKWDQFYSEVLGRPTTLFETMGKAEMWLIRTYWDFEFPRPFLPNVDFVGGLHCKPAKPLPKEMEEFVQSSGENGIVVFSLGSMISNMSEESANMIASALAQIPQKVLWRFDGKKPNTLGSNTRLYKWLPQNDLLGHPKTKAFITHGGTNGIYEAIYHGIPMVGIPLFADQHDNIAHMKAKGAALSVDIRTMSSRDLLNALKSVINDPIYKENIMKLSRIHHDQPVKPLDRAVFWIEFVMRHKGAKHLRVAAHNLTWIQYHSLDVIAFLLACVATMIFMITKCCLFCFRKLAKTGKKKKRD
Chain of UniProt P08183 (whole entry, looked up): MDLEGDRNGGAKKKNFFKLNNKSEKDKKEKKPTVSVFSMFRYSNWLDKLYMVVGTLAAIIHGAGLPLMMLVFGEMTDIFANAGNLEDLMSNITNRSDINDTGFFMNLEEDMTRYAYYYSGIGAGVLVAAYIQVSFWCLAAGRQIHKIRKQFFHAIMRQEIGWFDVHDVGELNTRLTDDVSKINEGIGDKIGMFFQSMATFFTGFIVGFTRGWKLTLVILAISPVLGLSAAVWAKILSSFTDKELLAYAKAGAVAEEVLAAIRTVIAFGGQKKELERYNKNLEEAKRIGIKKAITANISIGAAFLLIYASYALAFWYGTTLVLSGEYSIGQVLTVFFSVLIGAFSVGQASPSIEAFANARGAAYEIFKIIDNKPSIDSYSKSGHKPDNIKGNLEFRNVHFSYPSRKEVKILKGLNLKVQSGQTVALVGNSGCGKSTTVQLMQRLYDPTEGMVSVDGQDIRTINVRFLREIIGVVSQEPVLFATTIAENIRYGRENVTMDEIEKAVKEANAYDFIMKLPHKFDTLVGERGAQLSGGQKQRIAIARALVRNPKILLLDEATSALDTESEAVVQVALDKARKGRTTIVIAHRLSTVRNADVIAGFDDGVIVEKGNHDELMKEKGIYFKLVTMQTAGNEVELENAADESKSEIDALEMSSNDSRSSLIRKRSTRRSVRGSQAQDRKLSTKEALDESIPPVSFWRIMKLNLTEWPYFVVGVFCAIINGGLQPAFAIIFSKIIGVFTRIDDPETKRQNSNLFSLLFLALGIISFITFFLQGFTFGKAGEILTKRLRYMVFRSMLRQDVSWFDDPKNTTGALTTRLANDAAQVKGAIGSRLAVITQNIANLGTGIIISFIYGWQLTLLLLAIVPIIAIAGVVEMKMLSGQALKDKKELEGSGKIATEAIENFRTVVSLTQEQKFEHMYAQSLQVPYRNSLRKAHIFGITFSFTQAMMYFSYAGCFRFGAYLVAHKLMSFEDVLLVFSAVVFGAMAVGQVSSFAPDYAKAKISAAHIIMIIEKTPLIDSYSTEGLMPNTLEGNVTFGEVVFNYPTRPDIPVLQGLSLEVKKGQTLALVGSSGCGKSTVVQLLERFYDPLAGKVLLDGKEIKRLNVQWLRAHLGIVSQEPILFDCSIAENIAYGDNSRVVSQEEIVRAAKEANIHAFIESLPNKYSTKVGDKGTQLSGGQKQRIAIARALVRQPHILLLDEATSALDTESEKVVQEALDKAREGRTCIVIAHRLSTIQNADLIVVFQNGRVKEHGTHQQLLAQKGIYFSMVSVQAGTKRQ

O=[N+]([O-])c1ccc(N2CCN(CCC(O)c3ccc(F)cc3)CC2)c(C(F)(F)F)c1 (stereo not drawn)
survival (Salmonella typhimurium; SOS/umu test; TA1535/pSK1002; 0.016 mg/mL, 4 h, with S9, lower range): 105%

CC(=O)N1CCC(C(=O)N2CCN3C(=O)c4cc(-c5ccccc5)ccc4NC(=O)C3C2)CC1 (stereo not drawn)
revertants per plate (Salmonella typhimurium; TA100; 50 µg/plate, without S9): 94

CN1CC[C@@H](c2c(O)cc(O)c3c(=O)cc(-c4ccc(C(F)(F)F)cc4Cl)oc23)[C@@H]1CO
patients with adverse event (measured: Hyperglycemia; relapsed B-cell malignancies; oral, 150 mg, grade 3-4, intermittent dosing): 0%

O=C(O)c1cn(Cc2ccc(F)cc2)c2ccccc12
CLint ratio (UDP-glucuronosyltransferase 2B17 (UGT2B17, Homo sapiens, UniProt O75795); glucuronidation, recombinant enzyme; baseline: UGT1A10 over UGT2B17): 20 fold

CO[C@H]1C[C@@H]2CC[C@@H](C)[C@@](O)(O2)C(=O)C(=O)N2CCCC[C@H]2C(=O)O[C@H]([C@H](C)C[C@@H]2CC[C@@H](OC(=O)NCCOCCOCCOCCOCCOCCOCCOCCOCCC(=O)N3CCc4cc(Cn5nc(-c6ccc7oc(N)nc7c6)c6c(N)ncnc65)ccc4C3)[C@H](OC)C2)C[C@@H](O)[C@H](C)/C=C(\C)[C@@H](O)[C@@H](OC)C(=O)[C@H](C)C[C@H](C)/C=C/C=C/C=C/1C
TRAE incidence (phase 1 dose escalation, measured: decreased appetite; advanced solid tumour patients; intravenous, 8 mg weekly, grade ≥3): 0%

Cc1cc(C(=O)NC(C)(C)COc2cccc3c2C(N)=NS(=O)(=O)N3)cc(C)n1
revertant ratio (Salmonella typhimurium; Ames test, confirmatory; TA1537; 1000 µg/plate, with: rat liver S9; baseline: solvent control): 1

CC[C@@H](C)[C@@H](NC(=O)[C@@H](CC(C)C)NC(=O)[C@@H](CCCNC(=N)N)NC(=O)[C@@H](CCCNC(=N)N)NC(=O)[C@@H](CCCNC(=N)N)NC(=O)[C@@H](CCCNC(=N)N)NC(=O)[C@@H](CC(C)C)NC(=O)[C@H](NC(=O)[C@H](NC(=O)[C@H](NC(=O)[C@@H](CC(C)C)NC(=O)[C@@H](CCCNC(=N)N)NC(=O)[C@@H](CO)NC(=O)[C@H](N)CO)C(C)C)[C@H](C)CC)[C@H](C)CC)C(=O)N[C@H](CO)C(=O)N[C@H](CCCNC(=N)N)C(=O)N[C@H](CCCNC(=N)N)C(=O)N[C@H](CCCNC(=N)N)C(=O)N[C@H](CCCNC(=N)N)C(N)=O
hemolysis (human erythrocytes; 400 µM, 1 h; baseline: Triton X-100): 18%

CC(C)CC(=O)OC[C@H]1O[C@@](C#N)(c2ccc3c(N)ncnn23)[C@H](O)[C@@H]1O
recovery (ATP-dependent translocase ABCB1 (ABCB1, Homo sapiens, UniProt P08183); apical to basolateral transport; Caco-2; 0.9 µM, 2 h, with: verapamil 100 µM): 58.1%

CC(C)C[C@H](NC(=O)[C@H](CO)NC(=O)CNC(=O)[C@H](CCCNC(=N)N)NC(=O)[C@H](CCCNC(=N)N)NC(=O)[C@@H](N)CCCNC(=N)N)C(=O)N[C@H](C(=O)N[C@H](C(=O)N[C@@H](CCCNC(=N)N)C(=O)N[C@@H](CCCNC(=N)N)C(=O)N[C@@H](CCCNC(=N)N)C(=O)N[C@@H](Cc1ccc(O)cc1)C(N)=O)[C@@H](C)O)C(C)C
hemolysis (human erythrocytes; 400 µM, 1 h; baseline: Triton X-100): 2%

COc1ncnn2ccc(-c3cnc4nc(C)n(Cc5nnc([C@@H](C)F)o5)c4c3)c12
patients with decreased WBC count (phase 1 trial; human patients; oral, dose not given, CTCAE grade 2): 0%

CC[C@H](C)[C@H](NC(=O)[C@H](CC(C)C)NC(=O)[C@H](CCCNC(=N)N)NC(=O)[C@H](CC(C)C)NC(=O)[C@@H](NC(=O)[C@@H](NC(=O)[C@H](CCCNC(=N)N)NC(=O)[C@@H](NC(=O)[C@@H](NC(=O)[C@H](CCCNC(=N)N)NC(=O)[C@H](CCCNC(=N)N)NC(=O)[C@H](CCCNC(=N)N)NC(=O)[C@H](CO)NC(=O)[C@@H](N)CCCNC(=N)N)[C@@H](C)CC)[C@@H](C)CC)[C@@H](C)CC)C(C)C)C(=O)N[C@@H](CCCNC(=N)N)C(=O)N[C@@H](CCCNC(=N)N)C(=O)N[C@@H](CO)C(=O)N[C@@H](C)C(=O)N[C@@H](CCCNC(=N)N)C(N)=O
hemolysis (human erythrocytes; 400 µM, 1 h; baseline: Triton X-100): 76%

COc1cc2c(Oc3ccc4[nH]c(C)cc4c3F)ccnc2cc1OCC1(N)CC1
grade 1 or 2 hand-foot syndrome (paediatric recurrent refractory sarcoma; 8 mg): 0%

C[C@@H](c1nc(-c2ccc(C#N)cc2)cs1)[C@](O)(Cn1cncn1)c1cc(F)ccc1F
subjects with adverse event (gastrointestinal disorders; human; oral, dose not given, with: ethinyl estradiol/norethindrone): 17.4%

CC[C@@H](C)[C@@H](NC(=O)[C@@H](CC(C)C)NC(=O)[C@H](NC(=O)[C@H](NC(=O)[C@H](NC(=O)[C@@H](CCCCN)NC(=O)[C@@H](CCCCN)NC(=O)[C@@H](CCCCN)NC(=O)[C@H](N)CCCCN)C(C)C)[C@H](C)CC)[C@H](C)CC)C(=O)N[C@H](CO)C(=O)N[C@H](CC(C)C)C(=O)N[C@H](CCCCN)C(=O)N[C@H](CCCCN)C(=O)N[C@H](CCCCN)C(=O)N[C@H](CCCCN)C(=O)N[C@H](Cc1ccccc1)C(=O)N[C@H](CO)C(=O)N[C@H](C)C(=O)N[C@H](Cc1ccc(O)cc1)C(N)=O
hemolysis (human erythrocytes; 400 µM, 1 h; baseline: Triton X-100): 30%

CCN(CC)C(=O)[C@@H]1C=C2c3cccc4[nH]cc(c34)C[C@H]2N(C)C1
half-life (human; oral, 100 µg): 3.86 h and 3.13 h and 3.14 h and 3.56 h and 4.37 h and 4.59 h and 4.74 h

COc1cccc(-c2n[nH]c(SCc3ccccn3)n2)c1OC
revertant colonies per plate (Salmonella typhimurium; Ames test, preincubation; TA1537; 0.50 mg/plate, without S9): 5

CNC(=O)Oc1cccc2c1OC(C)(C)C2O (stereo not drawn)
IC10 (SH-SY5Y; cell viability; 24 h, nominal concentration): 172 µM

Cc1onc(-c2c(F)cccc2Cl)c1C(=O)N[C@@H]1C(=O)N2[C@@H]1SC(C)(C)[C@@H]2C(=O)O
deviation from nominal concentration (human whole blood; concentration not given, 24 h, 4 °C): -3.6%

Excerpt of the above:
CCN(CC)C(=O)[C@@H]1C=C2c3cccc4[nH]cc(c34)C[C@H]2N(C)C1
half-life (human; oral, 100 µg): 3.86 h and 3.13 h and 3.14 h and 3.56 h and 4.37 h and 4.59 h and 4.74 h
